Results gathered from unrelated publications.
± gives the spread as reported.
rep main protease: Replicase polyprotein 1ab, main protease (rep, Severe acute respiratory syndrome coronavirus 2, UniProt P0DTD1)
rep nsp14 with nsp10: Replicase polyprotein 1ab, nsp14 with nsp10 (rep, Severe acute respiratory syndrome coronavirus 2, UniProt P0DTD1)

The IC50 of CC[C@H](C)[C@H](NC(=O)[C@H](C)NC(=O)[C@H](CCC(=O)O)NC(=O)[C@H](CCC(=O)O)NC(=O)[C@H](CC(C)C)NC(=O)[C@H](CCCCN)NC(=O)[C@H](CCCCN)NC(=O)[C@H](CCSC)NC(=O)[C@H](CCC(=O)O)NC(=O)[C@H](Cc1ccc(O)cc1)NC(=O)[C@H](CCC(=O)O)NC(=O)[C@H](CC(C)C)NC(=O)[C@H](CC(=O)O)NC(=O)[C@H](CC(C)C)NC(=O)[C@H](Cc1ccccc1)NC(=O)[C@@H](NC(=O)[C@@H](NC(=O)[C@H](CC(N)=O)NC(=O)[C@@H](NC(=O)[C@H](CCC(N)=O)NC(=O)[C@H](CC(=O)O)NC(=O)[C@H](CC(C)C)NC(=O)[C@@H](N)CO)[C@@H](C)CC)C(C)C)[C@@H](C)O)C(=O)N[C@@H](CCCCN)C(=O)N[C@@H](CCCCN)C(=O)N[C@@H](CC(C)C)C(=O)N[C@@H](CCC(=O)O)C(=O)N[C@@H](CCC(=O)O)C(=O)N[C@@H](C)C(=O)N[C@@H](Cc1ccc(O)cc1)C(=O)N[C@H](C(=O)N[C@@H](CC(=O)O)C(=O)N[C@@H](CC(C)C)C(=O)N[C@@H](CCCCN)C(=O)N[C@@H](CCC(=O)O)C(=O)N[C@@H](CC(C)C)C(=O)O)[C@@H](C)CC is reported as 1050 nM (SARS-CoV-2 EG.5.1 pseudovirus; pseudovirus infection, inhibitor, luciferase; Caco-2; 24 h).
O=C(Nc1cccc(Cl)c1)Nc1nonc1NC(=O)Nc1cccc(Cl)c1 has a luciferase signal of 8.4 ± 0.7% (Replicase polyprotein 1ab, nsp4-nsp5-nsp6 precursor (rep, Severe acute respiratory syndrome coronavirus 2, UniProt P0DTD1); reporter gene, cell-based secondary screen).
The inhibition of Cc1ccc(S(=O)(=O)Nc2cccc(C(=O)NC3CCN(c4ncnc5[nH]cnc45)CC3)c2)cc1 is reported as 7.6% (Replicase polyprotein 1ab, nsp14 ExoN with nsp10 (rep, Severe acute respiratory syndrome coronavirus 2, UniProt P0DTD1); ExoN activity; 0.1953 µM).
The IC50 of CC[C@H](C)[C@H](NC(=O)[C@H](C)NC(=O)[C@H](CCC(=O)O)NC(=O)[C@H](CCC(=O)O)NC(=O)[C@H](CC(C)C)NC(=O)[C@H](CCCCN)NC(=O)[C@H](CCCCN)NC(=O)[C@H](CCSC)NC(=O)[C@H](CCC(=O)O)NC(=O)[C@H](Cc1ccc(O)cc1)NC(=O)[C@H](CCC(=O)O)NC(=O)[C@H](CC(C)C)NC(=O)[C@H](CC(=O)O)NC(=O)[C@H](CC(C)C)NC(=O)[C@H](Cc1ccccc1)NC(=O)[C@@H](NC(=O)[C@@H](NC(=O)[C@H](CC(N)=O)NC(=O)[C@@H](NC(=O)[C@H](CCC(N)=O)NC(=O)[C@H](CC(=O)O)NC(=O)[C@H](CC(C)C)NC(=O)[C@H](CO)NC(=O)[C@H](CC(C)C)NC(=O)[C@H](CC(=O)O)NC(=O)[C@@H]1CCCN1C(=O)[C@H](C)N)[C@@H](C)CC)C(C)C)[C@@H](C)O)C(=O)N[C@@H](CCCCN)C(=O)N[C@@H](CCCCN)C(=O)N[C@@H](CC(C)C)C(=O)N[C@@H](CCC(=O)O)C(=O)N[C@@H](CCC(=O)O)C(=O)N[C@@H](CO)C(=O)N[C@@H](Cc1ccc(O)cc1)C(=O)N[C@H](C(=O)N[C@@H](CC(=O)O)C(=O)N[C@@H](CC(C)C)C(=O)N[C@@H](CCCCN)C(=O)N[C@@H](CCC(=O)O)C(=O)N[C@@H](CC(C)C)C(=O)O)[C@@H](C)CC is reported as 193 nM (SARS-CoV-2 EG.5.1 pseudovirus; pseudovirus infection, inhibitor, luciferase; Caco-2; 24 h).
For CC(C)C[C@H](NC(=O)[C@@H](NC(=O)[C@@H](NC(=O)[C@H](CO)NC(=O)c1ccccc1N)C(C)C)[C@@H](C)O)C(=O)N[C@@H](CCC(N)=O)C(=O)N[C@@H](CO)C(=O)NCC(=O)N[C@@H](Cc1ccc(O)c([N+](=O)[O-])c1)C(=O)N[C@@H](CCCNC(=N)N)C(=O)O, the Km was 132 ± 25.9 µM (rep main protease; substrate; pH 7.4, 300 nM enzyme).
NS(=O)(=O)c1ccc(-c2cn(-c3ccc(C(=O)C=C(O)C(=O)O)cc3)nn2)cc1 has an inhibition of 118% (rep nsp14 with nsp10; exonuclease activity, inhibitor; 20 µM).
For O=C(Oc1cncc(Cl)c1)c1cc2ccccc2s1, the inhibition was 100% (rep main protease; enzyme activity; SARS-CoV-2; concentration not given, pH 7.2).
The inhibition of CC(C)(C)c1ccc(-c2cn(-c3ccc(C(=O)C=C(O)C(=O)O)cc3)nn2)cc1 is reported as -5% (rep nsp14 with nsp10; exonuclease activity, inhibitor; 20 µM).
Clc1nc2ccccc2cc1/C=N/c1cc(Br)ccn1 has an inhibition of 18.8% (Replicase polyprotein 1ab, papain-like protease (rep, Severe acute respiratory syndrome coronavirus 2, UniProt P0DTD1); enzyme activity, inhibitor; 100 µM).
Under “activation free energy”, Oc1nc(/C=C/c2ccc(Cl)cc2Cl)cc(C(F)(F)F)n1 is recorded as 21.2 kcal/mol (Replicase polyprotein 1ab, nsp16 with nsp10 (rep, Severe acute respiratory syndrome coronavirus 2, UniProt P0DTD1); irreversible inhibitor).
O=C(O)C(O)=CC(=O)C1(Cc2ccc(Cl)cc2)CCN(C(=O)OCc2ccccc2)CC1 has an inhibition of 11% (rep nsp14 with nsp10; exonuclease activity, inhibitor; 20 µM).

A few entries again:
O=C(O)C(O)=CC(=O)C1(Cc2ccc(Cl)cc2)CCN(C(=O)OCc2ccccc2)CC1 has an inhibition of 11% (rep nsp14 with nsp10; exonuclease activity, inhibitor; 20 µM).
